# Measurements gathered from unrelated publications.
# Every numbered part comes from another study and shows a few of its results, in no order.

# Sample 1
# Target: Hepatocyte nuclear factor 3-alpha (Foxa1, Mus musculus, UniProt P35582, residues 1-468, full length assumed)
# UniProt P35582, sequence (whole entry, looked up): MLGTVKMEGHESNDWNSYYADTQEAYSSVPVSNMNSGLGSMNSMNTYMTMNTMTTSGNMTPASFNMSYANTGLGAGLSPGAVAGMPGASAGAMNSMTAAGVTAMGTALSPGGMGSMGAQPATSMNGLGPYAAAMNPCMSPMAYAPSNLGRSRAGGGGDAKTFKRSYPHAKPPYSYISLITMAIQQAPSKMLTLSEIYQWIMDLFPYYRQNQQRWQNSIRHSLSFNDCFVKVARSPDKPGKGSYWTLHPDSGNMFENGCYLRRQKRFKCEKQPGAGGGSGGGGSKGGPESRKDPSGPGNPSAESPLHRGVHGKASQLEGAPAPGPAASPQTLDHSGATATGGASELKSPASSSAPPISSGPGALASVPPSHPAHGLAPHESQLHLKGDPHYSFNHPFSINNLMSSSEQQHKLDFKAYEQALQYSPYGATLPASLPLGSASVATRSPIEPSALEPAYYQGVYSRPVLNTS
# Method: EMSA with sequencing
# Molecule type: double-stranded DNA, one strand shown
# Medium: in vitro
# Tested at: 10 and 20 nM
# Setting: whole designed probe, mean of two concentrations, ends assumed
# Baseline: negative control set to 0
# Direction: higher = stronger binding
# All sequences stand within: GTGAGCGGTGCCCATTGATGGGGAAC … TTTCACTGGGATCGTGGGGAC
Sequence,normalised bound fraction
ACTGCTCACCACAGTTTTAAAGCTTTGCCTCTACCTGAAAACCAAACTGGATATGCAGTTAAGTGGAGAATTTAATCTTCCTTTAAAGACAATGCAATCTATTGGTGCCCCTTTAAAACTCGCTTTCTTGTTGAAAGTGAATATTTCTTTTGGATCATTCAAAAACTTCAAGTTTCTTCTGTGATTGTGTACA,0.0213 ratio
AAAAAAAAAAAGTGTGGATAATTCTAAAAGGGTCACAGCTCAGGCCCCATGATGTAAGTCTCTCTGGGAAGGGTGGCGTTGGCCATCACGCTGTGTAAACAGGGATCCCGGGGGCCAGCATCGCACTGCTCTCCATCCCCAGCGAAAGGAAGGGAGGCAGACACTGGGCAGCGGCACTCGGAGTCCACCCAGT,0.347 ratio
ATCTTCCCCCTCTTCCTTGCCCCACCAGCTCACCTTCCCGGGTTATTTGCAGATAGGAAAATAAATAAAGCCGGCATTCGTTAACGCAGTTCTGGCGCAAACTGCTGTTTGCTCTGCATGAATCATGGTCCTTACGCGAGGCGTGGCTCCGGGAGAGCAAAGCACCGTGTCAGGCGCATGATCCGGGCTCGCC,0.358 ratio
TAATATACTATATGGAATAATGACTTTCTATATCCGTAATCAATATTTACTTTGAATATCAGTAGGTTGAGTTAGTAGTTTGATTCTGGTCCCTTGTTTACTCTGATGCAATCCCCTGTAAGAAGGACCTGACAAAGTGCCTGGTGAATGGGGTTCAGTACATGCCAGTACCTTTTCTTTCCCTGCTAATGCG,0.439 ratio
ATCTTCCCCCTCTTCCTTGCCCCACCAGCTCACCTACGGGGGTTATTTGCAGATAGGAAAATAAATAAAGCCGGCATTCGTTAACCCTCTTCACGCGCATACTGCTGTTTGCTCTGCATGAATCATGGTCCTTACGCGAGGCGTGGCTCCGGGAGAGCAAAGCACCGTGTCAGGCGCATGATCCGGGGTGGCC,0.356 ratio
TCTTTCACTCAAGTGGTATATCCCACAGCCCTAAAGAAGCAAGGGAAATAAGAATTAGAACTAGACATCCCAGGAGACAAAGAATTCAACAAAGCAAACATTAACCAATCCCCACTTCCTGCTTCACTATTTACAGAAAATCTCTCTGGCTCAGGCCGGGCAGTGAGTTCATTTATTTCAACAAAATCAAAGA,0.26 ratio

# Sample 2
# Target: Histone acetyltransferase KAT6A, winged helix 1, GST fusion (KAT6A, Homo sapiens, UniProt Q92794, residues 1-85)
# Method: protein binding microarray
# Molecule type: double-stranded DNA, one strand shown
# Medium: in vitro
# Tested at: not given
# Setting: 8-mer, flanks averaged, mean of 2 arrays, mostly near background
# Baseline: not given
# Direction: higher = stronger binding
# Construct (chain): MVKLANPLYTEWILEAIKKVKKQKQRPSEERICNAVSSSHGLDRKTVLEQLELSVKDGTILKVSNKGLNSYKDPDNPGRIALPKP
Sequence,E-score
ATGGGCTG,-0.12
GCAGGATA,-0.24
TCATAGCA,-0.25
CGCTAGCG,0.333
ATATCCCC,-0.0627
GCTGGCGA,0.0134
AAAAGTTG,-0.0744
AGTATTCG,-0.0689
GAAAACCC,0.0611
ATAAGCTC,-0.124
GAGATTTA,-0.0662
ACTATCTC,-0.0657
TAGTACAA,-0.105
CCTTCTCC,-0.277
ATATTTGC,-0.0593
TCAGCTCA,0.0114
GTAATGAC,-0.0367
AAGCTTTG,-0.114
ATGGGGGC,-0.0981
GGGGAGTA,0.00332
CTCCAGGA,-0.119
GGTCATAA,-0.112
GCTTCAAA,-0.0296
ATCAATAA,-0.198
TGGACTAA,-0.101

# Sample 3
# Target: RNA binding protein fox-1 homolog 2, RRM domain, GST-SBP tag (RBFOX2, Homo sapiens, UniProt O43251-10, residues 100-194)
# Method: RNA Bind-n-Seq
# Molecule type: RNA
# Medium: in vitro
# Tested at: 365 nM
# Setting: natural RNA segment, single round, ends assumed
# Baseline: no-protein control
# Direction: higher = stronger binding
# All sequences stand within: GGGAGUUCUACAGUCCGACGAUC … UGGAAUUCUCGGGUGCCAA
# Construct (chain): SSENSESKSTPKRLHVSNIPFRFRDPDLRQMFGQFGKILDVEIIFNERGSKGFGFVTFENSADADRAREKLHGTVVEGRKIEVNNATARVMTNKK
Sequence,RBNS enrichment (R)
UAUUUUCUAAACAGAUCUUUAAUGGACUAUUUAAACCGAAUUUAAGGAAUUCACACACGACAGUUGACAGGUCUUCACGCAGGCUGGUUGGUAACGUGCUGCCAGCACAG,0.299
AAUUUUCCAGCAGUAACAUUUAGAGAUUCUUUAUAGAAAUGUCCUCUGCACCAACAGUUUAUGGCUGAGAUGUUUUGUAAUUUCAUGAUGUUUGUAAUUUUCAUGAAAAU,0.826
UAGAAUUUUAGUUUAGGGAAAACUGGUUUGAUUUCUAGCUUUAUUACUAUUAGGUAUGUAAGCUUGGGCAAAUCGCUUAACCUUCAGGUCUAGCUUUCUCACAGAAUGAG,0.399
ACACCAACUAGAUUAUUAUCAGGUACAGAAUCCUGUCCUGAACCUGGGCAAGGCUGGAGGUACUGUAGAGAAUCCAGCUUGGGCCACUGCUUCCAUGUAGAGAAGUGGGA,0.995
CCUCACCGGGAGAGCUGGGGCGCUUCGAAGAUAAUCCCUACCCUCUACAUCAAAUGCGGCUGAGGCAUUUUACAGUGGUUUGCCAUUAGCGUGUUCAUUCAGAUAAUGUU,0.237
UGCAGUCAGUGGUGUAUGCUUGUAAUCCCAGCCCUGGGGAGGCAGAGAAAAAUACCUAAGGCUCAGGCUCACCAGCUCAGCCAAAUCUGCAAGUACCAGACCAGUGAACA,0.369
UUUGUUAAGAUAGGGUUUGGAUUUAGUAUGAAGCUUUGGCUAAAACCCUUGGGUUUGCCUUAGAACACUGACACUAAGAACCUGGAAUGACAUGGGGAGGACAAAGAGAG,0.386
CCUUCCAUCUGAUUUGCCUGGCCAUGCCAUCCAGUCCUUGUACAUAUAUACCUUGGAGUCCCAUACACUUAGGAAACUCCAAGGAGACACGUCCUGCUCAUCCCCGCCCC,0.301
CUGGUUUAACUCACAGCAACUUUUAAUUGGUCUAAGAUGAGGGCAUCCCUCAGUUGGUCCAUUGUAAUGAUGAUCGUCCUCAUCUGAGUGACAGUUACUGCCCAGGGUCC,0.464
CCUCAGCCCGGGACGCCACAAACUGAAGCGAGUUCCCUGCUUUGCUCGUCACAAAUGCCAAACUGACUGCUCUUUCCCAGUGCCCAGUGCUGUCUUUUGCUUCUGUUUGA,0.595
GCAGGGGUCUUUGCUCUUGAAGCCCAGGAUUGGGCAUGACCUGGUAGGAGCCUCUGUUCUUACCUAUUUCCAUAUACAGCUGCCUGGAGGAUGCUUUUUUUCCAGGACAG,0.387
UUAUUUACCCAUACGUAUAUUUUAUGACCAUGAGCUAAGUUGUUAUUUCUUUCAUUCAUAUCCCUGCUGAAAUAUUGGUACUAGCAACUUAAAGUUGGCAAGUCUCAUCU,0.411

# Sample 4
# Target: Ras GTPase-activating protein-binding protein 1, full length (G3BP1, Homo sapiens, UniProt Q13283)
# UniProt Q13283, sequence (whole entry, looked up): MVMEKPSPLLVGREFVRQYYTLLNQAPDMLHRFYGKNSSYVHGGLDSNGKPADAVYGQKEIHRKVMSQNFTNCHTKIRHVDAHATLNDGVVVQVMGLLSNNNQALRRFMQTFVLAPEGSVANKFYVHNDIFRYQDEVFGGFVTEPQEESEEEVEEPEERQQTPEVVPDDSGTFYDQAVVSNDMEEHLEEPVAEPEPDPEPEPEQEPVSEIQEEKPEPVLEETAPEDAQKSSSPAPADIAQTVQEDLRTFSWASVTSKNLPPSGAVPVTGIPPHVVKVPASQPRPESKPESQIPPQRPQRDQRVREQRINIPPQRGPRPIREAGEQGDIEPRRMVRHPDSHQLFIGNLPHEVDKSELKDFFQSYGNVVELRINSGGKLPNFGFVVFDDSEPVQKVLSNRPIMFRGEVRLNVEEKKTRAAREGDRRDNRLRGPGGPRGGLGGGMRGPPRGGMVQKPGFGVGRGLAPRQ
# Method: RNA Bind-n-Seq
# Molecule type: RNA
# Medium: in vitro
# Tested at: 200 nM
# Setting: whole 134-nt RNA, ends assumed
# Added: 150 mM LiCl
# Baseline: input library
# Direction: higher = stronger binding
# Each molecule: 7-deaza-guanosine replaces G
# All sequences stand within: GGGAGUUCUACAGUCCGACGAUC … UGGAAUUCUCGGGUGUCAAGG
Sequence,log2 enrichment
GUCCUGUGCUACACAUCGUAUGUACCGAAUCGGGGCCCCCGGGCCCCCGGGCCCCCGGGAAAGUAUUAUGUUACGCCGUUCGGAUCUGCA,-2.1
UCCUUUUUUUUUUUCUUUGAAUGUAUUUAUUUCUUGUAGUCUACUGGUGCUGUUGUGACGGAGAGCCAGACGUACAAAAACCGAGCUGGU,1.13
UUAAGACAGUCAUUUUAAAAUGGUGGCUGAAUUUCCCAACCCACCCCCAAACUAAACACUAAGUUUAAUUUUCAGCUCCUCUGUUGGACA,0.632
CUCAAGUCCUGUGCUACACAUCGUAUGUACCGAAUCGGUGGUUUGGUUUUUGGAAAGUAUUAUGUUACGCCGUUCGGAUCUGCACUUCCA,0.414
AAGUCCUGUGCUACACAUCGUAUGUACCGAAUCGGUUUGGUUUUUGGAAAAAAAGGAAAGUAUUAUGUUACGCCGUUCGGAUCUGCACUU,-1.03
UCCUGUGCUACACAUCGUAUGUACCGAAUCGGGGAAAGGGGAAAAAAAGGGGUUUGGGGAAAGUAUUAUGUUACGCCGUUCGGAUCUGCA,0.109
CAAGUCCUGUGCUACACAUCGUAUGUACCGAAUCGGUUUUUUUGGAAAAAGGUGGAAAGUAUUAUGUUACGCCGUUCGGAUCUGCACUUC,-1.17
UGGCGCUGUCCUGGACUUGAUGGGGGAUGAAGCCCAGAACCUGACGAGGGGCCGGCAGCAGCUCAAGUGGUGAGUGAUCGAGUGAGCCGC,-0.556
GCCCUGUAAUCGUGGAGAUCCCGCACUUUGCCUCCCAUGGCCGUGGAGACCGCGAGCUCGUGGUUCUGAGGAGCGAAAACGGCUCCGUGU,-1.26
UGGGAGGUGGAUUUUGUUUAUUUUUUUAGCUUAUUUCCAGGGGUGGGAAUUUUUUUUUAAUAUGUGUCAUGAAUAAAGUUGUUUUUGAAA,0.127
AACACUCAAACCACCAUCAAGCUUUUCCAGGAAUGCUGUCCUCAUUCCACUGACAGAGUUGUUCUUAUUGGAGGAAAACCCGAUAGGGUU,1.23
